Published values pooled from the literature.
Each numbered part is a random draw from the data of one study; scales do not carry over between parts. Substitutions count along the parent as printed.

Block 1 — method: RNA Bind-n-Seq; form: RNA; medium: in vitro; tested at: 365 nM; baseline: no-protein control; reading: higher = stronger binding
Target: RNA binding protein fox-1 homolog 2, RRM domain, GST-SBP tag (RBFOX2, Homo sapiens, UniProt O43251-10, residues 100-194)
Setting: natural RNA segment, single round, ends assumed
Shared flanks, not repeated: GGGAGUUCUACAGUCCGACGAUC … UGGAAUUCUCGGGUGCCAA
Target sequence (chain): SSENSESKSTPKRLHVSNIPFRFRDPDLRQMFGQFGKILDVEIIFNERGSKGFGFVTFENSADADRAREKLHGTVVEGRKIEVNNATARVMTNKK
| Strand | RBNS enrichment (R) |
| --- | --- |
| GAAGGUGUGAAAUUGUAAAUAUUUUUAUCUAAGUAAAUGUUAAGCAGUUGUUUUAAAAAUACUUAAUAAAAUAAGCUUUUUUCCUGUGGAAGAGAAAUGGUCUCCUUGGU | 0.921 |
| UUUGAAAGACAUUUUUCAUUGUUCCAUUACCUAUAGAAAUGGUAUUUCAUGACCUAGGGAAAAAGGAAUUACUCCUUUUUGUAGACUCAUACCUGAAAGCAGUGAUUUAC | 0.219 |
| ACCAGCAUCCUGCCGCCCAAAGCCGCCUCUUCUCAGUUGCCAAACGAGGGGCCUGCCCCCCGCCCUACCGGCUUUUGGAUUCUGGGAGGGGAACUCUGCCUCCCUGCAAA | 0.451 |
| UGACCUUUGUUCUCCAGACCUGACCCAGGUAGGCAAGGGUACCCUCCCAGUCUCACCUACCAUACUGUGCCAUCUCUAGCCAAGCAAGCCAGGUUUAGAGAAGGGUCAAA | 0.348 |
| GAUUCCACUCUGUGCCCGCCUCUGCCGGGAGGGAGGGAGGCACACAGGUGGAGCUGACCCUCGUCUUUGUGGCAGCAAAACCAGGAUGCCUGGAGCUGUGGCCUGAGGGC | 0.406 |
| UCCACAGUGUAUUAGUGACAUUCUUUCAUUGACAGCUGACAUAAUUCAUUGAGUGAAAUAUUUUAAGCCAAAAAAAAAUUCCCUUUUUAAAAAAGGGGGUUUAAAUACUG | 0.525 |
| AGUUUCAACUGGCCUUACAUGUCCAUCCAGUGUUCCUAGACUUUGGGUGUUUCCCACCCAAUCCUGCUCCCUGACUCCCUAGAGACUAAGAGGACUCUCCCUGACCAAGG | 0.296 |
| CUCCACAAGGGACCCUUGAGAUCACUGACACAUCACCCCCAUUUCUCUGCUGGAAAAAACCAGAAUCCAGGAGGGGUUGUGACCUGCCCAAGACCAAGGGCAGUUUAGGG | 0.244 |
| AAAGACUCCCCUUAUCACUCUCCUCACAGUUGCUCUGCAUCUUUAAAGAGUAUUAGCUUCUGCUUCCGGACUCAGUCUUUGUUGAGUGGGCCACUUCCAGGGGUGUGCCC | 0.23 |
| GAAGUCAGAGUAUCAUCUAAAGUUAAGUAGACCCAAGCAAGACAGGGUCUUAAGGCCUGGGUUUAAGUGGGGCUUCUUGUCUGGGGUACCAAGAUAGGGAAAGAAAGAAA | 0.256 |
| UUCCAUGGGCCCCACCAUUUAUGUGUAGAAUUUGAAAUGGUUGUCACCUCUCUCUGAGGACAGAGCUUGAAGCCUCCACACCAGCUGCUGCUGGAGAUUCAAAGCCCAAC | 0.37 |
| UCAGGUCCAGCCAGUCCAAGCACAUGGCUUCCCAUCUGGGUGAGCCCACUGUCCCACUCCCACAUGUCUGGGCACCUGCCCUGGGCUGAGGCCAGGCUGCUCCAAGGGCC | 0.226 |

Block 2 — method: protein-binding microarray; form: double-stranded DNA, one strand shown; medium: in vitro; tested at: not given; reading: higher = stronger binding
Target: Protein C-ets-1 (ETS1, Homo sapiens, UniProt P14921, residues 1-441, full length assumed)
Sequence of UniProt P14921 (whole entry, looked up): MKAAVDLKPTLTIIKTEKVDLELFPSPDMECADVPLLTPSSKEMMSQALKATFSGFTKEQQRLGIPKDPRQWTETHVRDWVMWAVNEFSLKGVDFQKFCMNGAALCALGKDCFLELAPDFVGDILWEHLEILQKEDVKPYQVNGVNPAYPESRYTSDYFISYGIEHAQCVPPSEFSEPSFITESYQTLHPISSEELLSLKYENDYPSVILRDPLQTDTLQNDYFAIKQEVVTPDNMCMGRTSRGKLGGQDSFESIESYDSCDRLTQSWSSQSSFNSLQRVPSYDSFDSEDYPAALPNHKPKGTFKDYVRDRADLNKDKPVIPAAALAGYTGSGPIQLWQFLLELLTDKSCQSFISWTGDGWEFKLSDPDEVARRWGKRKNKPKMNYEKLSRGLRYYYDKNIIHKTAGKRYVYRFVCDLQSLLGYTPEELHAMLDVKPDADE
Setting: k-mer, scored over probes, only values ≥0.25
| Strand | E-score |
| --- | --- |
| CGAGGAAG | 0.388 |
| AATATCCC | 0.251 |
| TAACAGGA | 0.325 |
| CGGTTTCC | 0.422 |
| AGCGGAAG | 0.487 |
| CCGGGGAA | 0.352 |
| CGACTTCC | 0.459 |
| CCGGGACA | 0.304 |
| CCCGGCGG | 0.271 |
| CGGAAATA | 0.475 |
| GGGGGGAA | 0.282 |
| GGTCGGAA | 0.318 |
| CCGGTTCG | 0.296 |
| AGAACGGA | 0.287 |
| CCGGTGTA | 0.316 |
| CTTCCGGC | 0.495 |
| CATCTTCC | 0.314 |
| TATCCTGA | 0.253 |
| ATATCCCG | 0.302 |

Block 3 — method: universal PBM; form: double-stranded DNA, one strand shown; medium: in vitro; tested at: 600 nM; reading: higher = stronger binding
Target: Sal-like protein 4, full length isoform A (SALL4, Homo sapiens, UniProt Q9UJQ4, residues 1-1053)
Sequence of UniProt Q9UJQ4 (whole entry, looked up): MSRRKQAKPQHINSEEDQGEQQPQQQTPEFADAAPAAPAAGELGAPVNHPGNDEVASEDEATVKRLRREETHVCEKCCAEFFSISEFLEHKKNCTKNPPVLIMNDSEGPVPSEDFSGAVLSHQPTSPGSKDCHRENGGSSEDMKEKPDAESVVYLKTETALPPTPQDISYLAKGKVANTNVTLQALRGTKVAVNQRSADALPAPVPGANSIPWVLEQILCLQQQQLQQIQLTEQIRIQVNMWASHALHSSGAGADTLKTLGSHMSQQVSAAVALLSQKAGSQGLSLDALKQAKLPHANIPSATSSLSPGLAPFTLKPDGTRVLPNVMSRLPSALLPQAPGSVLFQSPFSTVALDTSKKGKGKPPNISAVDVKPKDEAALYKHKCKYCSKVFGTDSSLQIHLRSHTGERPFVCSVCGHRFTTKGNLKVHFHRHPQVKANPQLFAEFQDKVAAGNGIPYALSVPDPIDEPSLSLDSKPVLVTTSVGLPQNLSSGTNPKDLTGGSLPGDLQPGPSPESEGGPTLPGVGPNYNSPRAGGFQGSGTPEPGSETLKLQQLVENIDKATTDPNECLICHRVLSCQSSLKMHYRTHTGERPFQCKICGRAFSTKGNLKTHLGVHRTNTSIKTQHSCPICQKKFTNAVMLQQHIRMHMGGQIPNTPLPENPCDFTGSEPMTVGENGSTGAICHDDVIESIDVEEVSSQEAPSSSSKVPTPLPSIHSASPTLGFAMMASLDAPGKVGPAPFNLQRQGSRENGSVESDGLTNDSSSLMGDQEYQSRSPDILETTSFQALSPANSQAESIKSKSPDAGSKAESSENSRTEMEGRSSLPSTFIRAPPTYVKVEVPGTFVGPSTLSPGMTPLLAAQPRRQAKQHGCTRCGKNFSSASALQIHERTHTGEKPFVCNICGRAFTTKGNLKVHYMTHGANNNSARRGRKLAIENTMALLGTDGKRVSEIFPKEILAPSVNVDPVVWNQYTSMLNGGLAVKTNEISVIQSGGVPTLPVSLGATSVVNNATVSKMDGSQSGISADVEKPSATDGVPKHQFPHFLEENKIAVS
Setting: 8-mer, flanks averaged, mean of replicates
| Strand | E-score |
| --- | --- |
| CCGATGAA | 0.0725 |
| CATGTAGG | 0.0755 |
| AGGAGTCG | -0.175 |
| TAACAGCA | 0.224 |
| GGACTCCA | -0.223 |
| TGCGTTAA | 0.108 |
| TCAACTAA | 0.2 |
| TCGGCGAA | -0.0123 |
| TACGAAGA | 0.193 |
| TCTTTTAA | 0.26 |
| CGTCCAGA | -0.171 |
| CTCATAGA | 0.146 |
| ACAACACA | 0.0819 |
| CGTTCCGC | -0.156 |
| ACGACACA | 0.0909 |
| AATCTGCC | -0.0878 |
| CGTGTTAA | 0.146 |
| CAGAGGCA | -0.0439 |
| GGGAGGTA | -0.194 |
| ACGCCCAG | -0.278 |
| AAGAGGCC | -0.276 |
| ACCAACCT | -0.156 |
| CCAAACAA | 0.0372 |
| AGCAGGTC | -0.0493 |
| TGTGTGAA | 0.17 |

Block 4 — method: protein binding microarray; form: double-stranded DNA, one strand shown; medium: in vitro; tested at: not given; baseline: not given; reading: higher = stronger binding
Target: Histone acetyltransferase KAT6A, winged helix 2, GST fusion (KAT6A, Homo sapiens, UniProt Q92794, residues 85-181)
Setting: 8-mer, flanks averaged, mean of 2 arrays, mostly near background
Residues (chain): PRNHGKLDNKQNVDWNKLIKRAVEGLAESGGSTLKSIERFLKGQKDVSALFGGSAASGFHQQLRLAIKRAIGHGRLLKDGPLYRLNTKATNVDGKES
| Strand | E-score |
| --- | --- |
| TCTATCCA | -0.0411 |
| AAAGGTCA | 0.0438 |
| ATATCAAA | 0.0231 |
| CACCCCCA | -0.0649 |
| CCGAACTC | 0.147 |
| AAAATGAA | 0.0201 |
| CACGGAGC | 0.0996 |
| GCACGCCC | 0.191 |
| TAGCAAAA | 0.0367 |
| GTAAGACA | 0.000445 |
| CCAACCAC | 0.0737 |
| CAGACCGC | 0.252 |
| CTCGACCA | -0.0657 |
| GACCTTCC | -0.0294 |
| TCATATCA | -0.103 |
| AGTACCTG | 0.103 |
| ATCTTGGG | -0.0713 |
| GGCTGACA | 0.0361 |
| CTACGGGC | -0.13 |
| CGGTAGAG | -0.159 |
| AGGGGTAG | -0.133 |
| CCAGCTTC | 0.107 |
| ATAGATCG | -0.0492 |
| GTTCCGAA | 0.159 |
| AGACCGCA | 0.154 |

Block 5 — target: CCNF, cyclin fold, Cln2 fusion (human); method: yeast growth competition, sequencing; medium: yeast; setting: strong parent motif; baseline: not given; reading: higher = stronger binding
Parent: BRCA2 docking peptide (human); PSIKRNLLNEFDR; partner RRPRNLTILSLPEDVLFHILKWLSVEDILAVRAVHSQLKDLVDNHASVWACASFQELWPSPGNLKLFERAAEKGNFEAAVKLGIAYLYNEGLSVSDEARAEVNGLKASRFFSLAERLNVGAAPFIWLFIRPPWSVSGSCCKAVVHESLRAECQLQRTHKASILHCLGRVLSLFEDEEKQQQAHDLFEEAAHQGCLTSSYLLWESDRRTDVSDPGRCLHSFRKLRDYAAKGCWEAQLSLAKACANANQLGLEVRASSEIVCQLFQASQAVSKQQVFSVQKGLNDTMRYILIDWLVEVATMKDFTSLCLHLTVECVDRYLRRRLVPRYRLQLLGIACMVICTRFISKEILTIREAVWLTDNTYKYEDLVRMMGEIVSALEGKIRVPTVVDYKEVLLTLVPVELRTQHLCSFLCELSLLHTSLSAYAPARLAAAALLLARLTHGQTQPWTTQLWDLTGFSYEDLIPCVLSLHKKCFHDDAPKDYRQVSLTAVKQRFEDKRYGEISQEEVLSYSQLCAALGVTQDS
| Substitution | normalised enrichment score |
| --- | --- |
| PSIKRNFLNEFDR [L7F] | 0.205 |
| PSIKRNLLLEFDR [N9L] | 4.55 |
| PSIKRNLLNEFDS [R13S] | 3.72 |
| PSIHRNLLNEFDR [K4H] | 1.45 |
| PSIKRNLWNEFDR [L8W] | 0.872 |
| PSIKRNLLQEFDR [N9Q] | 3.6 |
| PSIKNNLLNEFDR [R5N] | -0.358 |
| PSIKRNLVNEFDR [L8V] | 1.5 |
| RSIKRNLLNEFDR [P1R] | 5.43 |
| PSWKRNLLNEFDR [I3W] | 1.52 |
| PHIKRNLLNEFDR [S2H] | 2.64 |
| PSIKRNLLREFDR [N9R] | 3.96 |
| PSIKRNLCNEFDR [L8C] | 2.22 |
| PSIKRNLLPEFDR [N9P] | 6.41 |
| PSIKRNLQNEFDR [L8Q] | 1.05 |
| PSIKRNLLNEFDP [R13P] | 2.65 |
| PSYKRNLLNEFDR [I3Y] | 1.75 |
| PSRKRNLLNEFDR [I3R] | 1.11 |

Other studies, line by line
| Substance | target | test | test system | setting | scale | endpoint | result |
| --- | --- | --- | --- | --- | --- | --- | --- |
| PhoQ, residues 284 288 289 292 302 303 AQGLTV | PhoP, residues 12 14 15 18 19 GQALL (Escherichia coli, UniProt P23836) | Sort-seq, measured: YFP reporter | E. coli | PhoQ-PhoP variant library, together with: 10 µM Mg2+ | baseline: high Mg2+ state, higher = stronger signaling | fold induction | 1.65 |
